Published values from different studies.
Compare with care: the assays were run in different laboratories. Values joined by “and” are separate records of one study, mostly repeats; a detail may differ.
Cell line: MDA-MB-231

CCCc1cc2cc(-n3nc(C4CC4(F)F)c4c3CC(C)(C)CC4=O)cc(N3CCC(O)CC3)c2c(=O)[nH]1 (racemic) — IC50 (cell growth or viability, MTS): 0.798 µM
CCNC(=S)NN=Cc1ccc([N+](=O)[O-])o1 — IC50 (cell growth or viability, resazurin): 73.9 µM
CCCc1cc2cc(-n3nc(CC)c4c3CC(C)(C)CC4=O)cc(N3CCC(O)CC3)c2c(=O)[nH]1 — IC50 (cell growth or viability, MTS): 1.53 µM
C[C@@H]1CC[C@@H]([C@](O)(COCc2ccccc2)Cn2cnc3ccccc32)[C@H](OCc2ccccc2)C1 — IC50 (cell growth or viability, MTT; 72 h): 5.02 µM
CCCCCCCCCCCC(=O)Oc1c(C)c(OC)c2c(/C=C/c3ccccc3)c(CCCCCCCCCC)c(=O)oc2c1C — IC50 (cell growth or viability, SRB; 72 h): > 50 µM
CC(C)(C)OC(=O)N1CCN(CC(OCc2ccc(Cl)cc2)c2ccc(Cl)cc2Cl)CC1 (centres unmarked) — IC50 (cell growth or viability, MTT; 24 h): 25.4 µM
C[C@@H]1CC[C@@H]([C@](O)(CNCc2ccc(F)cc2)COCc2ccccc2)[C@H](OCc2ccccc2)C1 — IC50 (cell growth or viability, MTT; 72 h): 15.4 µM
CC(C)(C)c1cnc(CSc2cnc(NC(=O)C3CCN(C(=O)CCCCCCN4Cc5cc6c(cc5C4)C(=O)N(C4CCC(=O)NC4=O)C6=O)CC3)s2)o1 (centres unmarked) — IC50 (cell growth or viability, MTT): 0.0668 µM
CC(=O)[O][Pd][c]1ccccc1N1N=C(C)C(C)(C)C1=O.CC(=O)[O][Pd][c]1ccccc1N1N=C(C)C(C)(C)C1=O — IC50 (cell growth or viability, MTT): 87.5 µM
COc1ccc2c(c1)/C(=N/NC(N)=S)C(=O)N2CCn1cnc2c(N)ncnc21 — IC50 (cell growth or viability, SRB; 72 h): 29.9 µg/mL
CC[C@H](C)/C=C/C=C/C=C/C(O)=C/C(=O)C(F)(Cl)Cl — IC50 (cell viability, CellTiter-Glo): 17.4 µM and 6.15 µM
CCOC(=O)/C=C1\S/C(=N\N=C\c2cccc3cc4ccccc4nc23)N(C)C1=O — IC50 (cell growth or viability, MTT; 48 h): > 50 µM
O=C(c1ccc(Cl)cc1Cl)N1CCN(CC(OCc2ccc3ccccc3c2)c2ccc(Cl)cc2Cl)CC1 (centres unmarked) — IC50 (cell growth or viability, MTT; 24 h): 35.6 µM
CCOC(=O)/C=C1\S/C(=N\N=C\c2cccc3cc4ccccc4nc23)N(c2ccc(F)cc2)C1=O — IC50 (cell growth or viability, MTT; 48 h): > 50 µM
CCCCCCCCCC(=O)Oc1c(C)c(OC)c2c(/C=C/c3ccccc3)c(CCCCCCCC)c(=O)oc2c1C — IC50 (cell growth or viability, SRB; 72 h): > 50 µM
CCCCN(CCCC)CC(=O)N1CCN(CC(OCc2ccc3ccccc3c2)c2ccc(Cl)cc2Cl)CC1 (centres unmarked) — IC50 (cell growth or viability, MTT; 24 h): 32.9 µM
CC(=O)OC[C@H]1O[C@@H](Oc2ccc(C#[C][Pt+])cc2)[C@H](OC(C)=O)[C@@H](OC(C)=O)[C@@H]1OC(C)=O.O=S(=O)([O-])C(F)(F)F.c1ccc(-c2cccc(-c3ccccn3)n2)nc1 — IC50 (cell growth or viability; 48 h): > 100 µM
C[C@@H]1CC[C@@H]([C@](O)(CNCc2ccccc2F)COCc2ccccc2)[C@H](OCc2ccccc2)C1 — IC50 (cell growth or viability, MTT; 72 h): 2.94 µM
O=C(c1cccnc1)N1CCN(CC(OCc2ccc3ccccc3c2)c2ccc(Cl)cc2Cl)CC1 (centres unmarked) — IC50 (cell growth or viability, MTT; 24 h): 26.5 µM
CC(C)c1ccc(N(C)c2ccc3c(c2)OCC[C@H]3CNc2cnccc2C(=O)O)cc1 — IC50 (cell growth or viability, MTS; 7 days): 0.0035 µM

A few entries again:
CC(=O)OC[C@H]1O[C@@H](Oc2ccc(C#[C][Pt+])cc2)[C@H](OC(C)=O)[C@@H](OC(C)=O)[C@@H]1OC(C)=O.O=S(=O)([O-])C(F)(F)F.c1ccc(-c2cccc(-c3ccccn3)n2)nc1 — IC50 (cell growth or viability; 48 h): > 100 µM
